{"data": "Measurements from different studies", "note": "Parts stem from different laboratories: compare values within a part only. ± marks the error that the study gave.", "sequence of UniProt P34913 (whole entry, looked up)": "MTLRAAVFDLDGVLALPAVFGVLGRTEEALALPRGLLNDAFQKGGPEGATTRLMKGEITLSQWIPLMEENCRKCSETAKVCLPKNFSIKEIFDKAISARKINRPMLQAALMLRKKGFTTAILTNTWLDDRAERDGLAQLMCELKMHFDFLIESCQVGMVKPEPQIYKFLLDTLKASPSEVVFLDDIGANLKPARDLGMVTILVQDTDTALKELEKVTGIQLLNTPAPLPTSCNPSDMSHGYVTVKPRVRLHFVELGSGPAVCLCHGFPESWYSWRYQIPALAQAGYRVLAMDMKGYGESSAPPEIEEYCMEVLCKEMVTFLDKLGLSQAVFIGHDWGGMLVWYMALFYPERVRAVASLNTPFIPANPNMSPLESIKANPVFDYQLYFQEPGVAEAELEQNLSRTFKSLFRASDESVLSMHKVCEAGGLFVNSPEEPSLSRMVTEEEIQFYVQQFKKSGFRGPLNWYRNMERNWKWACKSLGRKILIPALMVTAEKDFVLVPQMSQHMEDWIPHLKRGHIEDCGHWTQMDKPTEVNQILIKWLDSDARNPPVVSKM", "sequence of UniProt O00519 (whole entry, looked up)": "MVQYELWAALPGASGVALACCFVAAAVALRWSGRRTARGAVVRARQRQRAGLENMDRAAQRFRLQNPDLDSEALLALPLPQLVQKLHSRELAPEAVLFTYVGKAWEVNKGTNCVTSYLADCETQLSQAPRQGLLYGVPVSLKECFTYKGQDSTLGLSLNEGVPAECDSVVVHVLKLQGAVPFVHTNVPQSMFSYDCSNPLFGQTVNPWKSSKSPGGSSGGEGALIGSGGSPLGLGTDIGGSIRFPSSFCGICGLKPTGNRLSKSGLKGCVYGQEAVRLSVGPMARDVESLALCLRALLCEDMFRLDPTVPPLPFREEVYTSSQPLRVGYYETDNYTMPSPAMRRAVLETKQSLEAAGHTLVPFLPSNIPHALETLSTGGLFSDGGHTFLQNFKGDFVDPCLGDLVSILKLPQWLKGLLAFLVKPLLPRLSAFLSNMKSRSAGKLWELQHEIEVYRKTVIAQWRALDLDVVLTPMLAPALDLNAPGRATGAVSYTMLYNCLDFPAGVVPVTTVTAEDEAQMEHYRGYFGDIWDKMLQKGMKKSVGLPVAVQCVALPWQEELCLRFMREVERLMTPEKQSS", "sequence of UniProt P08588 (whole entry, looked up)": "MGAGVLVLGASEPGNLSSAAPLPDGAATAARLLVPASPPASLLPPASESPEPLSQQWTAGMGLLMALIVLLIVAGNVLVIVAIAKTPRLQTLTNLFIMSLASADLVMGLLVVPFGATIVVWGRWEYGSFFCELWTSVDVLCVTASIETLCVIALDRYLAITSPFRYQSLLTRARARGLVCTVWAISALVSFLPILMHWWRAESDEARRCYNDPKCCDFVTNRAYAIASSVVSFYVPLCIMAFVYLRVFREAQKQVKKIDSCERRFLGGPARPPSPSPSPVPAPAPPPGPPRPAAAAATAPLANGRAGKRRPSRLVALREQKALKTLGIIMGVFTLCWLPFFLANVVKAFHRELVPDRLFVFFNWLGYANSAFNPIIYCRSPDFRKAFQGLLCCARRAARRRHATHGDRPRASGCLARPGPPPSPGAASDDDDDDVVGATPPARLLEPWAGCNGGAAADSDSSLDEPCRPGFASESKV"}
{"data": "Sample 1", "Compound": "Cc1cc(OCc2nnc(SC3CCCC3)n2-c2cccnc2)ccc1-c1ccc(S(C)(=O)=O)cc1"}
{"cell line": "HT-29", "GI50 [nM]": 1890}
{"cell line": "DU-145", "GI50 [nM]": 1430}
{"cell line": "CAKI-1", "GI50 [nM]": 1150}
{"cell line": "NCI-H226", "GI50 [nM]": 216}
{"cell line": "PC-3", "GI50 [nM]": 1510}
{"cell line": "COLO 205", "GI50 [nM]": 1580}
{"cell line": "NCI-H460", "GI50 [nM]": 1320}
{"cell line": "SF-539", "GI50 [nM]": 1220}
{"data": "Other studies, line by line"}
{"Structure (SMILES)": "C#Cc1cccc(Nc2ncnc3cc(OCCOC)c(OCCOC)cc23)c1", "tested on": "PC-3", "test": "MTT", "setting": "1000 µg/mL, RPMI medium with 2% serum", "endpoint": "viability", "value": "3.64%"}
{"Structure (SMILES)": "Cc1cncc(C)n1", "tested on": "uncharacterized protein (Bos taurus, UniProt E1BM68)", "test": "agonist", "endpoint": "EC50", "value": "545000 ± 35800 nM"}
{"Structure (SMILES)": "C[S+](=O)([O-])N1CCN(Cc2cc3nc(-c4cccc5[nH]ncc45)nc(N4CCOCC4)c3s2)CC1", "tested on": "ADRB1 (Homo sapiens, UniProt P08588)", "test": "antagonist", "endpoint": "IC50", "value": "≥ 100000 nM"}
{"Structure (SMILES)": "CN1CCc2nc(C(=O)N[C@@H]3C[C@@H](C(=O)N(C)C)CC[C@@H]3NC(=O)C(=O)Nc3ccc(Cl)cn3)sc2C1", "test system": "human", "setting": "with: ketoconazole", "scale": "relative to: compound alone", "endpoint": "increase in median Tmax", "value": "~30 min"}
{"Structure (SMILES)": "Cn1cc(-c2cccc(N3CCc4c(sc5c4CCCC5)C3=O)c2CO)cc(Nc2ccncn2)c1=O", "test system": "human pooled plasma", "setting": "4 h", "endpoint": "fraction unbound", "value": 0.027}
{"Structure (SMILES)": "Cc1ccc(S(=O)(=O)Nc2c(N3CCC(NC(=O)Nc4ccc(C#N)cc4Cl)CC3)c(=O)c2=O)cc1", "tested on": "EPHX2 (Homo sapiens, UniProt P34913)", "endpoint": "IC50", "value": "36.2 ± 2.9 nM"}
{"Structure (SMILES)": "Cc1c(-c2cc(Nc3ccncn3)c(=O)n(C)c2)cccc1N1CCc2c(sc3c2CCCC3)C1=O", "test system": "human pooled plasma", "setting": "4 h", "endpoint": "fraction unbound", "value": 0.011}
{"Structure (SMILES)": "O=C(Nc1ccc(-c2ccc3ccccc3n2)cc1)C1CCN(Cc2cccc(F)c2)CC1", "tested on": "FAAH (Homo sapiens, UniProt O00519)", "endpoint": "IC50", "value": "197 nM"}
{"note": "Excerpt of the above (sample 1):"}
{"cell line": "NCI-H460", "GI50 [nM]": 1320}
